Published values pooled from the literature.
Numbered parts are unrelated; each lists some results of a single study. Several values in a cell are separate wells, animals, samples, runs or records. Changes are numbered by the printed parent chain.
UniProt Q14289, sequence (whole entry, looked up): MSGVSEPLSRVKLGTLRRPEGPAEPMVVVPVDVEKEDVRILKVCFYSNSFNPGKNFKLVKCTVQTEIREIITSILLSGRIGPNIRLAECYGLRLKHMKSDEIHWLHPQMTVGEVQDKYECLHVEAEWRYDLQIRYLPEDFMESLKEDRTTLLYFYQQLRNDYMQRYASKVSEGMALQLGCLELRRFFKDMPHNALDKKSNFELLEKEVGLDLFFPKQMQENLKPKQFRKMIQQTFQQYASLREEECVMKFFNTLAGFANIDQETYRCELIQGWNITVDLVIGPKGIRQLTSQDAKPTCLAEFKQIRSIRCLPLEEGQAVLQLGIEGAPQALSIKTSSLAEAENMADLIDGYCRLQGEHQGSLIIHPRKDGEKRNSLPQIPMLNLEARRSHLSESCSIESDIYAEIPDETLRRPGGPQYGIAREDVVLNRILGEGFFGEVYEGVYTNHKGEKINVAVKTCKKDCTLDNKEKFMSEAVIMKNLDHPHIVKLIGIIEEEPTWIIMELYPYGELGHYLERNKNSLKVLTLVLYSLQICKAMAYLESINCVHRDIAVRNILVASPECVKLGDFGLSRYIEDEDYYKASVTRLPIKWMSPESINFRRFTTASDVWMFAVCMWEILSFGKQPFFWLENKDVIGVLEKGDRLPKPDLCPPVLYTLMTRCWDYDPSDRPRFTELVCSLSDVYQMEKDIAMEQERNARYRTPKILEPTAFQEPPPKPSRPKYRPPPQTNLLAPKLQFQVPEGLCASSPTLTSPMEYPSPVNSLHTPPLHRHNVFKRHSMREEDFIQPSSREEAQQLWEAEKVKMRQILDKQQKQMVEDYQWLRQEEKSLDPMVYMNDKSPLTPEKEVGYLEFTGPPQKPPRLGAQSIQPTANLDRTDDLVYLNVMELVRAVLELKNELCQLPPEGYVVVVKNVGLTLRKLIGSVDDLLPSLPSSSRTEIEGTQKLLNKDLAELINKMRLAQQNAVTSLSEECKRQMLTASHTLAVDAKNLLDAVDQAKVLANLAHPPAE
UniProt P29317, sequence (whole entry, looked up): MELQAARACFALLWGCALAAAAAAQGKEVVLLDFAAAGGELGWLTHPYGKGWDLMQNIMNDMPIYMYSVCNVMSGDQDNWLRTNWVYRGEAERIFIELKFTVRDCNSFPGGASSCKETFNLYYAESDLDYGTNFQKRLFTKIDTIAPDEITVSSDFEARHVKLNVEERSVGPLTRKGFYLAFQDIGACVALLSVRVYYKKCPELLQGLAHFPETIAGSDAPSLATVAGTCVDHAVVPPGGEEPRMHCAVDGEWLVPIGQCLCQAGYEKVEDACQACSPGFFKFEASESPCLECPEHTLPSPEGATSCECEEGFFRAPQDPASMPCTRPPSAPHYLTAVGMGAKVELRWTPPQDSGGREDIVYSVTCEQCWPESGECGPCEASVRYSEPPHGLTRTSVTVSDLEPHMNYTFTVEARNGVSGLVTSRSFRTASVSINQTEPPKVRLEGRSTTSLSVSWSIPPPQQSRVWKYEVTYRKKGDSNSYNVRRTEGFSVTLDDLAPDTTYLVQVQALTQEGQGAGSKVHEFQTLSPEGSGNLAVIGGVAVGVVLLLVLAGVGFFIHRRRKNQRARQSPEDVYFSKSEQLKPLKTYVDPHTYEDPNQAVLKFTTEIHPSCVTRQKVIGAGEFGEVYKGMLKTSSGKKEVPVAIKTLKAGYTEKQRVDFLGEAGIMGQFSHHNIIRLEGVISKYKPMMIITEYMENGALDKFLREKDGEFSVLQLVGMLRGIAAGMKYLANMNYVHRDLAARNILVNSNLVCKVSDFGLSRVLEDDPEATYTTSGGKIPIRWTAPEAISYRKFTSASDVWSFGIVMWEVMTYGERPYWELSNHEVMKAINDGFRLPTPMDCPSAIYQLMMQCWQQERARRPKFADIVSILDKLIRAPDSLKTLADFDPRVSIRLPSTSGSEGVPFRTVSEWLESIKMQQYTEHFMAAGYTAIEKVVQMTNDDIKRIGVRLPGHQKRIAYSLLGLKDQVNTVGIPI
UniProt P42680, sequence (whole entry, looked up): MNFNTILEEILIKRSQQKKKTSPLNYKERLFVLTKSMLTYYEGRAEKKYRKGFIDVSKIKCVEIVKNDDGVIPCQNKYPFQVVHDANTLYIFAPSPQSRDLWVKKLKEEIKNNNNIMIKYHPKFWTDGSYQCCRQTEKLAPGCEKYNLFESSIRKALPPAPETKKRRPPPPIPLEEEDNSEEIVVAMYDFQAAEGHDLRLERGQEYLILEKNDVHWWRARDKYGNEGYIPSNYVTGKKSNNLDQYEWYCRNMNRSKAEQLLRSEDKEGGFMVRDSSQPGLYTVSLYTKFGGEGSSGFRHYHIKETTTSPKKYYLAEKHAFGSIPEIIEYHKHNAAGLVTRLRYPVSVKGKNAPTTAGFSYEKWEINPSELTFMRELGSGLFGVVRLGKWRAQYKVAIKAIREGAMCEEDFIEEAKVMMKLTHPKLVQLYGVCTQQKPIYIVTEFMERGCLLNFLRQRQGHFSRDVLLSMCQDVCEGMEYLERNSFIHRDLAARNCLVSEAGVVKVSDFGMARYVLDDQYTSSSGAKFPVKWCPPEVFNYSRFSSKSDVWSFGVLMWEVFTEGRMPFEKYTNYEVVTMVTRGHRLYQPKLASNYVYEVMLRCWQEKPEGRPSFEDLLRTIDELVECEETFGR
UniProt Q8N5S9, sequence (whole entry, looked up): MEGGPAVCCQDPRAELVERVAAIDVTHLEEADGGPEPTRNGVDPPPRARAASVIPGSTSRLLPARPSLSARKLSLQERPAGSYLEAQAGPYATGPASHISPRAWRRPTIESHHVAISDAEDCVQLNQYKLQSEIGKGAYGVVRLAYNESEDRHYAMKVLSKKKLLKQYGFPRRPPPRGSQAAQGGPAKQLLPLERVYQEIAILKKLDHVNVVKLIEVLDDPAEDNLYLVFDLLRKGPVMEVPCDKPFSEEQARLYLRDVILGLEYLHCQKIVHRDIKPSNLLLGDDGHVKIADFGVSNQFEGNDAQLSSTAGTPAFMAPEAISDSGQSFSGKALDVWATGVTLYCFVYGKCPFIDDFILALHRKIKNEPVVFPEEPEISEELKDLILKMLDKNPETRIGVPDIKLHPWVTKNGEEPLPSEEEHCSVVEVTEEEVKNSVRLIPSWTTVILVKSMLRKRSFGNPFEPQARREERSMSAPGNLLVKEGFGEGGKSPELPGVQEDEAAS
UniProt Q04759, sequence (whole entry, looked up): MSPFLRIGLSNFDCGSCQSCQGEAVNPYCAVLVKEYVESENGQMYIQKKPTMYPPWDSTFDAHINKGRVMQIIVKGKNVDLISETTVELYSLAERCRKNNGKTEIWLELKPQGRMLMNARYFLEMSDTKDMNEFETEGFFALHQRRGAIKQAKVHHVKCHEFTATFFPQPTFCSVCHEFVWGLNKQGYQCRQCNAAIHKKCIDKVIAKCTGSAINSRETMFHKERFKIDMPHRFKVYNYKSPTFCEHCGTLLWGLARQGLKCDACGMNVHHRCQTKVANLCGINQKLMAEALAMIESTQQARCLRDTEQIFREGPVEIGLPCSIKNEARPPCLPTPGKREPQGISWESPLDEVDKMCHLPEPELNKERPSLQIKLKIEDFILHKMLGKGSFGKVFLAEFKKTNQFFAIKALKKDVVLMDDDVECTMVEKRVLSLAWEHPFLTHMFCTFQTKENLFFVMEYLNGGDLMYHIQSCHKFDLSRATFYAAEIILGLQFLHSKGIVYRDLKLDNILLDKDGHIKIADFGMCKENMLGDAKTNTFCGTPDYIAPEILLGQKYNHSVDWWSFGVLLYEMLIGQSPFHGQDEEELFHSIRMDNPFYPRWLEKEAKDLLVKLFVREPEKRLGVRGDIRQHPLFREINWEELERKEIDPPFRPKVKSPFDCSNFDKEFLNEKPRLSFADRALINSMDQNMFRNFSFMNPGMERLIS
UniProt Q9H0K1, sequence (whole entry, looked up): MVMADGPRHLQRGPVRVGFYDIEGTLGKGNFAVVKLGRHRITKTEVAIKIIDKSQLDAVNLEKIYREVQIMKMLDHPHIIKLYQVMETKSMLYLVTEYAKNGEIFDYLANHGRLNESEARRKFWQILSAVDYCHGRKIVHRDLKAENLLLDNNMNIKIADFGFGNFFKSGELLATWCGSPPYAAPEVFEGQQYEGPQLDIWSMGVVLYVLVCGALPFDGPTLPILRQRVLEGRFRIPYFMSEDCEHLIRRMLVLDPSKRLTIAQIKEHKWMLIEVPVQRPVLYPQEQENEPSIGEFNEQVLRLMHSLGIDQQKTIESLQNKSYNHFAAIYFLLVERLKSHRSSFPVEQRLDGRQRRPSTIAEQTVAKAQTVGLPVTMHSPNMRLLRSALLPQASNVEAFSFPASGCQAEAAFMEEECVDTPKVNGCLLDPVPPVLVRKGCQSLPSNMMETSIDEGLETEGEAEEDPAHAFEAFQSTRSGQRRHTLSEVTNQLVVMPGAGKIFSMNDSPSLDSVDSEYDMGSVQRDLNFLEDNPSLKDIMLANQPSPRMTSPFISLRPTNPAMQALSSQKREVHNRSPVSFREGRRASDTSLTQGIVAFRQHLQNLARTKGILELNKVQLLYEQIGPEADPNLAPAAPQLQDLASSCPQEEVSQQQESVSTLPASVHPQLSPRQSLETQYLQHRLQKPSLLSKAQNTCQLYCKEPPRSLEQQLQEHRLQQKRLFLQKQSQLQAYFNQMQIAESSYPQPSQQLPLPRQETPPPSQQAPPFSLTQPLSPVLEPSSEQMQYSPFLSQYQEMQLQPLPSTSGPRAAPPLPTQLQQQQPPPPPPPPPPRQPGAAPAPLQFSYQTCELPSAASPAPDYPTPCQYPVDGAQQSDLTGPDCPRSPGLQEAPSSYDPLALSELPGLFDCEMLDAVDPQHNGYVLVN

Sample 1 — Structure (SMILES): COc1ccc(-c2cnc3c(-c4ccsc4)cnn3c2)cc1; effect on: enzyme activity; mode: inhibitor; tested at: 0.5 µM; relative to: control
target | remaining activity
EPHA2 (Homo sapiens, UniProt P29317) | 95.9%
PRKCQ (Homo sapiens, UniProt Q04759) | 98.7%
SRPK1 (Homo sapiens, UniProt Q96SB4) | 101%
PAK1 (Homo sapiens, UniProt Q13153) | 97%
MARK1 (Homo sapiens, UniProt Q9P0L2) | 98.9%
RPS6KB2 (Homo sapiens, UniProt Q9UBS0) | 100%
CAMKK1 (Homo sapiens, UniProt Q8N5S9) | 79.2%
Cyclin-dependent kinase 2, with cyclin E (CDK2, Homo sapiens, UniProt P24941) | 82.8%
FLT1 (Homo sapiens, UniProt P17948) | 75.7%
TEC (Homo sapiens, UniProt P42680) | 124%
CLK1 (Homo sapiens, UniProt P49759) | 82.8%
DYRK1A (Homo sapiens, UniProt Q13627) | 69.7%
SIK2 (Homo sapiens, UniProt Q9H0K1) | 79.4%

Sample 2 — target: CEBPB, bZIP domain (human); method: DHFR protein complementation; sample: yeast; relative to: wild-type JUN-FOS pair; reading: higher = stronger binding
Notes: single substitutions, most at no-binding floor
Starting sequence: JUN, bZIP domain (human); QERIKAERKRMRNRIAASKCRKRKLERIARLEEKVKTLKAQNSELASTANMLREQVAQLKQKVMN; partner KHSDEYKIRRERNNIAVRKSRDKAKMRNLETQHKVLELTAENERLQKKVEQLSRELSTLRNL
Change | binding fitness [natural log]
K36L | -1.32
E54C | -1.37
Q41G | -1.49
K36W | -1.45
A29G | -1.31
S47D | -1.23
T48G | -1.44
V35W | -1.33

Sample 3 — method: protein-binding microarray; molecule type: hairpin DNA; sample: in vitro; tested at: not given; relative to: not given; reading: higher = stronger binding
Target: Runt-related transcription factor 1, full length (RUNX1, Homo sapiens, UniProt Q01196-8, residues 1-480)
Notes: whole hairpin DNA, median over replicate spots
Sequence | median fluorescence [a.u.]
GAGGCCTGTTGAGGTTGGCCTCCTGGCCAACCTCAACAGGCCTCACACTC | 1950
GAGGCCTGTTGCGGCGGGCCTCCTGGCCCGCCGCAACAGGCCTCACACTC (5mC at 15) | 2420
GAGGCCTGTTGTAGTTGGCCTCCTGGCCAACTACAACAGGCCTCACACTC | 1670
GAGGCCTGTCGCGCGTGGCCTCCTGGCCACGCGCGACAGGCCTCACACTC (5mC at 14 30) | 1990
GAGGCCCAACCGCAGCAGCCTCCTGGCTGCTGCGGTTGGGCCTCACACTC (5mC at 30) | 4890
GAGGCCTGCTGTGGTTGGCCTCCTGGCCAACCACAGCAGGCCTCACACTC | 2550
CTCAGTTCCGTGGGCTGGACTCCTGTCCAGCCCACGGAACTGAGACACTC (5mC at 9) | 1980
GAGGCCCAACCCCAACAGCCTCCTGGCTGTTGGGGTTGGGCCTCACACTC | 2110

Further values, each from its own experiment
SMILES | tested on | assay | system | setting | how to read | quantity | result
COCCOc1nc(-c2ccc(Cl)nc2)nc2c1CN(C(=O)c1ncn3ccccc13)CC2 | normal-adjacent organoid sample E | CellTiter-Glo |  | 0.1 µM, replicate mean | relative to: DMSO | viability | 131%
CNC(=O)c1ccc(Nc2ncc(C(F)(F)F)c(NCc3nccnc3N(C)S(C)(=O)=O)n2)cc1 | PTK2B (Homo sapiens, UniProt Q14289) | target engagement, NanoBRET | live cells |  |  | EC50 | 703 nM and 509 nM and 347 nM
Cc1c(NC(=O)c2cc(C(N)=O)nc3cc(F)ccc23)c(C(F)(F)F)nn1Cc1ccc(C(C)(C)C)cc1 | normal-adjacent organoid sample E | CellTiter-Glo |  | 0.1 µM, replicate mean | relative to: DMSO | viability | 108%
COc1ccc2cc(OCC3(C(=O)O)CN(C(=O)c4ccc(F)cc4)C3)ccc2c1 | normal-adjacent organoid sample E | CellTiter-Glo |  | 0.1 µM, replicate mean | relative to: DMSO | viability | 113%

Repeated from above (further values, each from its own experiment):
SMILES | tested on | assay | system | setting | how to read | quantity | result
COCCOc1nc(-c2ccc(Cl)nc2)nc2c1CN(C(=O)c1ncn3ccccc13)CC2 | normal-adjacent organoid sample E | CellTiter-Glo |  | 0.1 µM, replicate mean | relative to: DMSO | viability | 131%
CNC(=O)c1ccc(Nc2ncc(C(F)(F)F)c(NCc3nccnc3N(C)S(C)(=O)=O)n2)cc1 | PTK2B (Homo sapiens, UniProt Q14289) | target engagement, NanoBRET | live cells |  |  | EC50 | 703 nM and 509 nM and 347 nM
Cc1c(NC(=O)c2cc(C(N)=O)nc3cc(F)ccc23)c(C(F)(F)F)nn1Cc1ccc(C(C)(C)C)cc1 | normal-adjacent organoid sample E | CellTiter-Glo |  | 0.1 µM, replicate mean | relative to: DMSO | viability | 108%
COc1ccc2cc(OCC3(C(=O)O)CN(C(=O)c4ccc(F)cc4)C3)ccc2c1 | normal-adjacent organoid sample E | CellTiter-Glo |  | 0.1 µM, replicate mean | relative to: DMSO | viability | 113%
